Results from different studies.
A part holds a random share of what one study measured.

Study 1
Target: Sal-like protein 4, full length isoform A (SALL4, Homo sapiens, UniProt Q9UJQ4, residues 1-1053)
Sequence of UniProt Q9UJQ4 (whole entry, looked up): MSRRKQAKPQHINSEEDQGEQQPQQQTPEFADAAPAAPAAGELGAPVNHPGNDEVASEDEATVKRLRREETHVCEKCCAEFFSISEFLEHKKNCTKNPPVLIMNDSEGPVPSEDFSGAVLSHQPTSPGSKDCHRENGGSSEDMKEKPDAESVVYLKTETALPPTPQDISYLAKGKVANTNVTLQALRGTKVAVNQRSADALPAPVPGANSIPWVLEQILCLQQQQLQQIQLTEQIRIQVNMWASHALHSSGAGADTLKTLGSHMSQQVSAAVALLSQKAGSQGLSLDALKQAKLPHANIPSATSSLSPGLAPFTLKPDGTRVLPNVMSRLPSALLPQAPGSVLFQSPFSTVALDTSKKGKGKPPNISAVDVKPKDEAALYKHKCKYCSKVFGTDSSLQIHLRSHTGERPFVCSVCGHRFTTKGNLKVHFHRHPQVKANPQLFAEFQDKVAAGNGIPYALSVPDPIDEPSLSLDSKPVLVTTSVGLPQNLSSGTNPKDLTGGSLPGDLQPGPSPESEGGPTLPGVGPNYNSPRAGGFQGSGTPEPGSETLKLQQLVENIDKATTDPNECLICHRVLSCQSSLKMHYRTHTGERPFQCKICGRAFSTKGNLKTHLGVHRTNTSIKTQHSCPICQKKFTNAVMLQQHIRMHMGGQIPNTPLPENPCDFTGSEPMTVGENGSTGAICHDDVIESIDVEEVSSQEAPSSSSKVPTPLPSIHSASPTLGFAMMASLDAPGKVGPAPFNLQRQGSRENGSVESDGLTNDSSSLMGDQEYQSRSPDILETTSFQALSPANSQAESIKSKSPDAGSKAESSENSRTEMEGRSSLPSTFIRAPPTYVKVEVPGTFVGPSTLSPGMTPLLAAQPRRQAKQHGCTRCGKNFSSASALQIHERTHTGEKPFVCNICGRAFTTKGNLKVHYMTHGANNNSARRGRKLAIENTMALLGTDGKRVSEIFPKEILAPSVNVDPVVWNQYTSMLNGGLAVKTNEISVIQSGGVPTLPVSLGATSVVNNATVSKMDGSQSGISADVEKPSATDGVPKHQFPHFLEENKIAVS
Method: universal PBM
Form: double-stranded DNA, one strand shown
Matrix: in vitro
Concentration: 600 nM
Setting: 8-mer, flanks averaged, mean of replicates
Reading: higher = stronger binding
Measurement: E-score
TACCCGCA: -0.14
AGCGCAGA: -0.268
GGCAGACA: -0.128
CTGGCCGA: -0.31
AGTATAGC: 0.0958
GGGGTTGA: -0.177
TAGAGCTA: -0.0456
ACACCTCC: -0.183
AAATGATC: 0.0854
AATATCCC: 0.145
CGACCATC: -0.196

Study 2
Target: RING finger protein unkempt homolog, zinc fingers 1-6, GST-SBP tag (UNK, Homo sapiens, UniProt Q9C0B0, residues 30-357)
Sequence of UniProt Q9C0B0 (30-357, looked up): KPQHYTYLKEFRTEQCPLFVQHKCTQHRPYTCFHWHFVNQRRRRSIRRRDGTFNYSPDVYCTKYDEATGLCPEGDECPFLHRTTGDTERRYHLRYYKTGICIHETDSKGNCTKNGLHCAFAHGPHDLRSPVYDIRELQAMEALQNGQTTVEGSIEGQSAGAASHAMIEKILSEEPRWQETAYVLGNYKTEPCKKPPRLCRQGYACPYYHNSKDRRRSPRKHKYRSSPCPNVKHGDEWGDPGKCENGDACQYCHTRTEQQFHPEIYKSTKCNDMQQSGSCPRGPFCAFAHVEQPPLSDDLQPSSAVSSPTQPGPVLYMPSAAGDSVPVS
Method: RNA Bind-n-Seq
Form: RNA
Matrix: in vitro
Concentration: not given
Setting: RNA with constant flanks, human and mouse sites, ends assumed
Relative to: input RNA pool
Reading: higher = stronger binding
Measurement: bound/input enrichment
All sequences stand within: GGGAGUUCUACAGUCCGACGAUC … CAACAGAGGAUUGAGCAUCA
ACGUUUUUAUGGUCCCCUAUGCCUGAACAUUAUGUGGAAGGAUCAACAGUCAAUUGUGUACUAGCAUUCCAAGGAUAUUACCUUCCAAAUGAUGAUGGAGAAUUUUAUCAGUUCUGUUAC: 0.16 ratio
CGGAAUCUGCUGGCCCUUCGUCAGAUUGCCCAGAGGACCAUCAGCACCACUUCACGAAGGCAUUUUGAAAACAAGGUUCCAGAGAAACAAAAGCUGUUUCAGGAGGAUAAUGGGAUGCCA: 0.221 ratio
GCUGAACUUGAUACACUGAAUGAAGACUCAUACAAAGACAGCACCCUCAUCAUGCAGUUGCUUAGAGACAACCUAACACUUUGGACAUCAGACAGUGCAGGAGAAGAAUGUGAUGCGGCA: 0.272 ratio
AACAAUCUUCAGAAGUAUAUAGAGAUAUAUGUCCAGAAGGUAAAUCCAAGUCGACUUCCUGUGGUUAUUGGAGGAUUGCUGGAUGUUGACUGCUCUGAAGAUGUCAUUAAAAAUUUGAUU: 0.179 ratio
UCAAAACGAGCAAAAUUUGUUGGACCUGGUGGCUAUAACUUAAAAAAACUUCAGGCUGAAACAGGUGUAACUAUUAGUCAGGUGGAUGAAGAAACGUUUUCUGUAUUUGCACCAACACCC: 0.191 ratio
GAUGGACUACAUUUGUCUCCAAAGGGGAAUGAAUUUUUGUUCUCGCAUCUCUGGCCUUUGAUAGAGAAAAAGGUCUCUUCUCUACCUUUGCUGCUUCCUUACUGGCGGGAUGUAGCAGAA: 0.294 ratio
ACGCCCGCCCGAGAACUCUGCAGAAUGUGGAACCCUUGAGUUCAUACAGCACCUCCAUACUGUUCCCUCUCUCUCUCUCUUCCUCUGUAGCCAGCAGGCUGCCAUCCUGCACAGGGCCAG: 0.192 ratio
ACUCAUUUUGACCCAAUGGGUGUACGCACAGAUGCACCUCUGAUGCAGUUUAAAUCUAUCCUUUUAAAGUACAGCACCCCCACCUACACUGGAGGACAGUCAGAAAGCCAUGUCCAGUCA: 0.243 ratio

Study 3
Target: Prothrombin, mature alpha-thrombin (F2, Homo sapiens, UniProt P00734)
Method: aptamer microarray, sandwich
Form: DNA with 2'F-ANA
Matrix: in vitro
Concentration: 200 nM
Setting: whole 15-mer aptamer, many near background
Added: Cy3 exosite-II aptamer, 400 nM
Reading: higher = stronger binding
Measurement: mean fluorescence intensity
Oligonucleotide: GGTTGGTGTGGTTGG
2'F-ANA at 2 3 4 5 10 12 14 15: 51.6 a.u.
2'F-ANA at 5 6 9 12: 173 a.u.
2'F-ANA at 2 4 6 10 11 13 14: 115 a.u.
2'F-ANA at 1 5 11 12 13: 81.2 a.u.
2'F-ANA at 1 4 5 6 8 13 14: 45.7 a.u.
2'F-ANA at 1 2 3 4 9 10 11 13 14: 48.9 a.u.
2'F-ANA at 5 6 8 9 12 13 15: 139 a.u.
2'F-ANA at 1 2 5 6 8 10 12 13 14: 48.2 a.u.

Mixed results
PhoQ, residues 284 288 289 292 302 303 SLGVVW — fold induction (PhoP, residues 12 14 15 18 19 GHCSL (Escherichia coli, UniProt P23836); Sort-seq, item: YFP reporter; E. coli; PhoQ-PhoP variant library, added: 10 µM Mg2+; relative to: high Mg2+ state, higher = stronger signaling): 17.8

Some of these lines once more (study 3):
2'F-ANA at 5 6 9 12: 173 a.u.
2'F-ANA at 2 3 4 5 10 12 14 15: 51.6 a.u.
2'F-ANA at 5 6 8 9 12 13 15: 139 a.u.
